Results from different studies.
Each numbered part is a random draw from the data of one study; scales do not carry over between parts. Positions count from the first letter of the parent shown.

Series 1 — target: vanadate, free oxyanion; method: microfluidic competitive inhibition; sample: in vitro, cell-free expressed; tested at: not given; direction: lower = stronger binding
Setting: derived from inhibition constants, unchanged parent 676 nM
Starting sequence: PafA, mature enzyme, eGFP fusion (Elizabethkingia meningoseptica, UniProt Q9KJX5); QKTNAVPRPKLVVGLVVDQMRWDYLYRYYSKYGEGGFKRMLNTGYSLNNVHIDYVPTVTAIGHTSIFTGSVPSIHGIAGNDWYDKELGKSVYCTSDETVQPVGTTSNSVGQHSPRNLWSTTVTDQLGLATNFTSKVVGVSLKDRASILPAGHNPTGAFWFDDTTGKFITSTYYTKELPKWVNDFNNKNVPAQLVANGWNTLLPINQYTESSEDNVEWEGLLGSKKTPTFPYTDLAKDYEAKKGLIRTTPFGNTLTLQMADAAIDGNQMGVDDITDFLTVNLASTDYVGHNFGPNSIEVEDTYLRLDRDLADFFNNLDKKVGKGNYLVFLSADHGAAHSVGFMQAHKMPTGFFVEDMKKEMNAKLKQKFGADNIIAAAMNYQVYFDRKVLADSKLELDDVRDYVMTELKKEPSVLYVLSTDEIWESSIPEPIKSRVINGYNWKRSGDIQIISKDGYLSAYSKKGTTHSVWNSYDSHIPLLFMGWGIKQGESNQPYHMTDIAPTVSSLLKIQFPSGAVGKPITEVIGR
Substitution | oxyanion analog dissociation constant
I476G | 6.71 µM
I263V | 576 nM
N294G | 854 nM
T120G | 546 nM
N470V | 685 nM
I449G | 611 nM

Series 2 — method: protein-binding microarray; form: double-stranded DNA, one strand shown; sample: in vitro; tested at: not given; direction: higher = stronger binding
Target: Protein max, full length (MAX, Homo sapiens, UniProt P61244-2, residues 1-151)
Setting: k-mer, scored over probes, only values ≥0.25
Strand | E-score
CCATATGG | 0.378
AAATCACG | 0.375
CCGTGTAC | 0.252
CGTGTAAA | 0.366
CACCCGTG | 0.289
CGCGTGGC | 0.468
ACGCGAGA | 0.299
ACATGTCT | 0.266

Series 3 — method: RNA Bind-n-Seq; form: RNA; sample: in vitro; tested at: 365 nM; relative to: no-protein control; direction: higher = stronger binding
Target: RNA binding protein fox-1 homolog 2, RRM domain, GST-SBP tag (RBFOX2, Homo sapiens, UniProt O43251-10, residues 100-194)
Setting: natural RNA segment, single round, ends assumed
Constant ends, left off below: GGGAGUUCUACAGUCCGACGAUC … UGGAAUUCUCGGGUGCCAA
Target sequence (chain): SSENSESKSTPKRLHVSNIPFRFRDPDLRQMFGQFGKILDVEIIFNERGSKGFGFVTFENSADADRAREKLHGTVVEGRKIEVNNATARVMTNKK
Strand | RBNS enrichment (R)
AGAAAAAGGUCUAUUCUUCAGCAGAUCACUGUGGCCCCUCUUGGAGCUGGGUGUUUUCAAAUUUUCUUGAAAAGUGAGUUGUGUCACAGAAUGUGGAUAGUGAGAUUUGC | 1.51
UGUGACUUGUUCAUCCCCCCUUCCCUUCGCCCUCAUGUGGAAAGAGGAGCUGGGACCGCGGCGAGCAGCACGGAGCGGAAGGGAGAGCAGGGGAGAGAAGGCCUCAUCUC | 0.777
GACUGUAAAUUGCGAUAAGGAAAUGUACUGAUUGCCAAUACACCCCACCCUCAUUACAUCAUCAGGACUUGAAGCCAAGGGUUAACCCAGCAAGCUACAAAGAGGGUGUG | 0.242
AGUGGCUCUGACCCCCAACCUACUCUGGGCACCUUCCUACCCCCAUCUCUCCAGCAACAAUAACCUAAGAUGUCUAUAGACAUUAGACCAUGUCUCCAUAAGACAGGCCC | 0.665
CCUGCUGCAGUCUCUUGGGUCUCACACGCACUGCAAAUGCUAAGCGAUGGCCAGCUGUCUCCCUCCGUGGCAUCUGCUAUUCAAAGAAGAUGGAGUGAGAGGGGCGCCAG | 0.275
CAUCCGUUUCCCCACCUGAUAUGGUUUGGCUGUGUCCCCACCUAAAACUCAUCUUGAAUUGUAGCUCCCAUAAUUGCCAUGUGUUGUGGGAAGGACCCAGUGGGAGAUAA | 1.57
UGUUAUUUUAUUUUCCAUACAGUAAAAAAUGUCCUCUCUUAACUCCUCUCACCCCCAACUCCCAAGGCAAAAGAGAAACCAAAAGUAGGACAAAAGAAAGAGACAGACAG | 0.612
ACUGCCCAACCUUUCCUGAUAAUCGUGGCAUGCGCCCUUUCCUCUUCCCUGCCCCACCCCCUGGCCGCAGCAGGCCAGCACUGCAGAGUUUGGGUGCUGGUGGUGUGGCU | 1.55

Series 4 — target: CCND3, cyclin fold, Cln2 fusion (human); method: yeast growth competition, sequencing; sample: yeast; setting: weak parent motif; relative to: not given; direction: higher = stronger binding; starting sequence: viral docking peptide; KGVKRKLFAEDSS
Substitution | normalised enrichment score
D11G | 0.139
E10N | -0.0664
L7C | 0.188
D11S | 0.297
A9G | 0.0637
L7N | 0.412
R5Y | 0.0186
E10C | 0.0233
D11H | 0.00862
S12I | 0.163
R5G | -0.511
K6D | -0.526
A9L | 0.0604
D11Y | 0.219
E10S | 0.546
F8H | -0.137
D11A | 0.206
L7P | -0.0582

Other studies, line by line
SMILES | target | read-out | method | tested at | quantity | result
Cc1cc(C)c(-n2ccn3nc(-c4cccnc4)cc23)cc1NC(=O)c1cc(C#N)cc(S(F)(F)(F)(F)F)c1 | Serine/threonine-protein kinase PknB (pknB, Mycobacterium tuberculosis, UniProt P9WI81) | cell-free assay | competition with immobilised ligand | 0.1 µM | remaining binding | 62.5%

Some of these lines once more (series 4):
Substitution | normalised enrichment score
D11Y | 0.219
D11S | 0.297
F8H | -0.137
L7C | 0.188
